Measured values gathered from unrelated publications.
A part holds a random share of what one study measured.
Chain of UniProt Q9HAZ1 (whole entry, looked up): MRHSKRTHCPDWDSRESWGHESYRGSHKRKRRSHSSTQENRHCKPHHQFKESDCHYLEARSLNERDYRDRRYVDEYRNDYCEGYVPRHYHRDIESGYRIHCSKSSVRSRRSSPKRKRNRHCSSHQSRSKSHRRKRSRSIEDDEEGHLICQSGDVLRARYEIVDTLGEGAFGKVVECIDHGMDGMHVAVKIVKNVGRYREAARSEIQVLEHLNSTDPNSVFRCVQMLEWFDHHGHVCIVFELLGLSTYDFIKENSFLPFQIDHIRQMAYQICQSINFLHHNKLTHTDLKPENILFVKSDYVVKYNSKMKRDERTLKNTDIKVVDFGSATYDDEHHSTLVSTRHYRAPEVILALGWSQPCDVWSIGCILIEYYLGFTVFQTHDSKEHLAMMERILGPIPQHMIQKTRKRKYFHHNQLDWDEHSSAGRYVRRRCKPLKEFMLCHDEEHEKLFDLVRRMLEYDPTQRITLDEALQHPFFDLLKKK
Chain of UniProt Q7KZI7 (whole entry, looked up): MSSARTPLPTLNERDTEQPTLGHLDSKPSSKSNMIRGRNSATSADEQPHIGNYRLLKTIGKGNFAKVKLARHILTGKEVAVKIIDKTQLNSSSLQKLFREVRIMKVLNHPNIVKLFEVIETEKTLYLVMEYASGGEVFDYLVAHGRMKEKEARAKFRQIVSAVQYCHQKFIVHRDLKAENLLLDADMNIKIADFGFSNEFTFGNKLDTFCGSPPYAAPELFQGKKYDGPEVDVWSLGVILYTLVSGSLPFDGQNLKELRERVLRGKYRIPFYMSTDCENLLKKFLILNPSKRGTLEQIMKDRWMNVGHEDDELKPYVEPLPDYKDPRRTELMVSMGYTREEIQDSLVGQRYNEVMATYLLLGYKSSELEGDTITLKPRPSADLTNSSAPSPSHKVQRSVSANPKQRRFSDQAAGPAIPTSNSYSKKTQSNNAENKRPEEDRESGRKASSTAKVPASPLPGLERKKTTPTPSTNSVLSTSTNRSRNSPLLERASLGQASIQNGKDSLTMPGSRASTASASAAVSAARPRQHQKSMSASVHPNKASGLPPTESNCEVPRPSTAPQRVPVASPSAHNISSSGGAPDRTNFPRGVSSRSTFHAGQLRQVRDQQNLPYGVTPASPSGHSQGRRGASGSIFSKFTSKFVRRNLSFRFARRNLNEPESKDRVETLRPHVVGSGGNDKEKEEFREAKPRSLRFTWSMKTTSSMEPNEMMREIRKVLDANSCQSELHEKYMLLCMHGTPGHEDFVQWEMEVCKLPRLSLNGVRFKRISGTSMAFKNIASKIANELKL
Chain of UniProt Q15759 (whole entry, looked up): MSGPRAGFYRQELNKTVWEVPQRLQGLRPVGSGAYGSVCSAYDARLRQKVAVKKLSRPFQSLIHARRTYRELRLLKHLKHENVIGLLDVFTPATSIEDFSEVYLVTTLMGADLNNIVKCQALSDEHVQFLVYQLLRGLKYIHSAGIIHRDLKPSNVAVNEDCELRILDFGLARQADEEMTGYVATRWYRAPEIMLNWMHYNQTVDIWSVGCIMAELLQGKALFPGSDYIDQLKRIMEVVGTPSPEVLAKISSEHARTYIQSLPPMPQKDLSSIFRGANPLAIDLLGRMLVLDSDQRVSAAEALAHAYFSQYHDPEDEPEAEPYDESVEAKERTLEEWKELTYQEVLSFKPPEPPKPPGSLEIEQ
Chain of UniProt P28482 (whole entry, looked up): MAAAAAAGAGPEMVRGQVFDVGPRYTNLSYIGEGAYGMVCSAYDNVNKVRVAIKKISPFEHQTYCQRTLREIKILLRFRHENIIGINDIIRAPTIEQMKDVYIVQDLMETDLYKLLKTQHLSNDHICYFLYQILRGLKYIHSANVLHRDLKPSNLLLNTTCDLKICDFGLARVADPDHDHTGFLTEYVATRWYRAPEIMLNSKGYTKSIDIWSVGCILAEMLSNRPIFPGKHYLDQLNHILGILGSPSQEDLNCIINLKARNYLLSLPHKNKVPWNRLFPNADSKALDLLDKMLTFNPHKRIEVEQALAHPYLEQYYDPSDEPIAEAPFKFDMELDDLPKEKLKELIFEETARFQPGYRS
Chain of UniProt O14733 (whole entry, looked up): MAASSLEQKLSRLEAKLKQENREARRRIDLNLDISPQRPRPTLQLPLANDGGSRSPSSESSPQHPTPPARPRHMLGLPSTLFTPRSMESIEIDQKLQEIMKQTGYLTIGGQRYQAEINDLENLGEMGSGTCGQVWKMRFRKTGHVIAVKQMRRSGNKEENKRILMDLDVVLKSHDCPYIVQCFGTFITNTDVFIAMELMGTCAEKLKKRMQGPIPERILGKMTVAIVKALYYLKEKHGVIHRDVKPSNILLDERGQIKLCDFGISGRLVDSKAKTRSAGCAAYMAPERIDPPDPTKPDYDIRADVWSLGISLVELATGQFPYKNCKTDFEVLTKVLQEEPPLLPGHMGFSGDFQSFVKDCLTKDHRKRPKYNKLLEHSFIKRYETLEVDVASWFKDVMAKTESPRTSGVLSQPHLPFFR
Chain of UniProt Q13464 (whole entry, looked up): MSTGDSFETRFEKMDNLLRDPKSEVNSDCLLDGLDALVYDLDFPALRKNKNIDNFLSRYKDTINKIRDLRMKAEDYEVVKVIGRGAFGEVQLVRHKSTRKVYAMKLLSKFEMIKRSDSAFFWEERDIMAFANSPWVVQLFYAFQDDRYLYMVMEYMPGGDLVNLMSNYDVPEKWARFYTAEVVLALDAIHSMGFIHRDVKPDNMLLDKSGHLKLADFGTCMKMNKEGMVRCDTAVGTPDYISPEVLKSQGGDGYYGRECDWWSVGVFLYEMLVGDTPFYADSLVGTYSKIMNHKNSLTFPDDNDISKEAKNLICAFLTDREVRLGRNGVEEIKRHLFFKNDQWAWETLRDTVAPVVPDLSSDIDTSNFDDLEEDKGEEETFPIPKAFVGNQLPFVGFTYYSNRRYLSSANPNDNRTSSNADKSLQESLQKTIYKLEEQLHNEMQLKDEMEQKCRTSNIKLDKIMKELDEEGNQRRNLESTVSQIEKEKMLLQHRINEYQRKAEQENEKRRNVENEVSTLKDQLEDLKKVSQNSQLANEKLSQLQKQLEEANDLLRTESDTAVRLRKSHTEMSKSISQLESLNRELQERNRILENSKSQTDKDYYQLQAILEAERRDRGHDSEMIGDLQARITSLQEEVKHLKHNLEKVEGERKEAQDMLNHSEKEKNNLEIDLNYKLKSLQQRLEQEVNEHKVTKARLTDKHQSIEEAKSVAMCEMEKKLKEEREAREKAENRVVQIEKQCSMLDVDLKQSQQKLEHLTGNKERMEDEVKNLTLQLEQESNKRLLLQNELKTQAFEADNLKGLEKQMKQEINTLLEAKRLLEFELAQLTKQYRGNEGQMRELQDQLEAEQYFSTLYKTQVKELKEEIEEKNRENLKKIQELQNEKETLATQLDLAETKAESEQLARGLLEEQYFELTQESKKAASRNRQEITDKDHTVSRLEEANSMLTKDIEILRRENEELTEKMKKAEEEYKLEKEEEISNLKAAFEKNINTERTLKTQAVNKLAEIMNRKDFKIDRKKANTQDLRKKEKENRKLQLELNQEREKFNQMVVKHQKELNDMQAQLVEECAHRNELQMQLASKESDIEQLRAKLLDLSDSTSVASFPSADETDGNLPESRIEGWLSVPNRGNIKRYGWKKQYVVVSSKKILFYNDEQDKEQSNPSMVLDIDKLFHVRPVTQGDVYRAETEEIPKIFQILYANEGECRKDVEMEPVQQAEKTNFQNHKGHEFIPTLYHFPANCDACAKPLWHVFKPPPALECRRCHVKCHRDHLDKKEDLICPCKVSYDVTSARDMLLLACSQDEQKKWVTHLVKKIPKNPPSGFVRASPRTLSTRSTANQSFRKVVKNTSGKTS
Chain of UniProt P06493 (whole entry, looked up): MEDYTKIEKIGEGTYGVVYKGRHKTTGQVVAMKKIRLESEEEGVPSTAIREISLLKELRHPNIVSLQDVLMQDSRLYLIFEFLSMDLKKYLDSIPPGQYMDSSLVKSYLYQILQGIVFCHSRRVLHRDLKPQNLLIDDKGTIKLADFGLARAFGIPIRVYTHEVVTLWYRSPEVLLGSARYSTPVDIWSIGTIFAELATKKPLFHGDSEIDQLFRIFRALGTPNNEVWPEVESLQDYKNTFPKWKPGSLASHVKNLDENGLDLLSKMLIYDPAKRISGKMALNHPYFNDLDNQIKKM
Chain of UniProt Q16566 (whole entry, looked up): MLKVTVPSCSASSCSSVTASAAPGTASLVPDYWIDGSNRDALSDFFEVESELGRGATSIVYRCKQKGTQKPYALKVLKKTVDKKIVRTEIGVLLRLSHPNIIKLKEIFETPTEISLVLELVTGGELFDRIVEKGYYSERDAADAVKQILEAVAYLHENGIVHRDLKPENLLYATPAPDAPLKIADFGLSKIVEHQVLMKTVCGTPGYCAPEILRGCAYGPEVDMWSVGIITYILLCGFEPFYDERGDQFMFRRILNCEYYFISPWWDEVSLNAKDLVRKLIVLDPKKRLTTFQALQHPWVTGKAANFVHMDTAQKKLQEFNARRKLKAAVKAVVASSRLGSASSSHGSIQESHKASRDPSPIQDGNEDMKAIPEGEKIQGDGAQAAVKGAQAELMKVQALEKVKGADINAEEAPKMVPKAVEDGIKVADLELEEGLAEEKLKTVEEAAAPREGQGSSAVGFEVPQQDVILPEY
Chain of UniProt Q02750 (whole entry, looked up): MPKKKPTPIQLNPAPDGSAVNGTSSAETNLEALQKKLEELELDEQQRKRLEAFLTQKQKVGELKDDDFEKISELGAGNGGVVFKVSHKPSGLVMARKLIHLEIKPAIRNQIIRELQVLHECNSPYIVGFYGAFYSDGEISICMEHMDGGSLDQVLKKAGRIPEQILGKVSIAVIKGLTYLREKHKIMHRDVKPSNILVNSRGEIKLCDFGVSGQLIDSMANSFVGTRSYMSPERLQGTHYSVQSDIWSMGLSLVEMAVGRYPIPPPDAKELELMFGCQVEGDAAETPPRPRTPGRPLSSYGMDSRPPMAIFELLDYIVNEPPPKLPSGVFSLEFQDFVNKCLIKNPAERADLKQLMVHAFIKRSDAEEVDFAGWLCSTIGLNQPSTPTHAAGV

Block 1
Target: Bromodomain-containing protein 4, BD1 (BRD4, Homo sapiens, UniProt O60885)
Effect on: acetyl-histone H4 peptide binding
Method: AlphaScreen displacement
Tested at: 50 µM
With N#Cc1ccc(C(=O)Nc2cc(N3CCCCC3)ccc2N2CCCCC2)o1 the inhibition was 66%.
With COC(=O)CSc1ccc2nnc(-c3cccc(F)c3)n2n1 the inhibition was 9.85%.
For O=C(Nc1ccc(N2CCOCC2)cc1)Nc1ccc(Cl)c(Cl)c1, the inhibition was 38.4%.
The inhibition of COc1ccc(N(C)C(=S)Nc2ccc3nc[nH]c(=O)c3c2)cc1 is reported as 14.1%.
With O=C(CSc1ccc2nnc(-c3cccc(F)c3)n2n1)N1CCOCC1 the inhibition was 10.2%.
CCOc1cc(C=NNc2ccc3nnc(-c4ccc(Br)cc4)n3n2)ccc1O has an inhibition of 61.6%.
Nc1nc(Nc2ccccc2)sc1C(=O)c1ccc(F)cc1 gave an inhibition of 56%.
For Ic1cccc(CSc2nnc(-c3ccncc3)o2)c1, the inhibition was 2.25%.
CCOC(=O)CNC(=O)CSc1ccc2nnc(-c3ccc(Cl)cc3)n2n1 has an inhibition of 7.65%.
The inhibition of Nc1n[nH]c2nc3ccccc3nc12 is reported as 11.6%.

Block 2
SMILES: Cn1nc(C(F)(F)F)cc1-c1cnc(N2CCc3cc(S(=O)(=O)Nc4c(F)cc(Cl)cc4F)cc(N4CCCC4=O)c32)nc1
Effect on: cell-free assay
Method: competition with immobilised ligand
Tested at: 1 µM
For EGFR (Homo sapiens, UniProt P00533, L861Q): remaining binding read 100%.
The remaining binding was 92% (Tyrosine-protein kinase ABL1, phosphorylated (ABL1, Homo sapiens, UniProt P00519, M351T)).
KIT (Homo sapiens, UniProt P10721, A829P) — remaining binding: 80%.
The remaining binding was 98% (MAP2K7 (Homo sapiens, UniProt O14733)).
The remaining binding was 90% (CLK4 (Homo sapiens, UniProt Q9HAZ1)).
The remaining binding was 100% (DDR1 (Homo sapiens, UniProt Q08345)).
FGFR2 (Homo sapiens, UniProt P21802) — remaining binding: 100%.

Block 3
SMILES: CC(C)n1cnc(-c2ccc(F)cc2)c1-c1ncc(C(=O)Nc2ccc(N3CCN(C)CC3)cc2)[nH]1
Method: phase 2a clinical trial
Host: patients with idiopathic pulmonary fibrosis
It gave 0% for “patients with treatment-emergent adverse events” (measured: gastro-oesophageal reflux disease; 60 mg once daily, Grade 3).
measured: left bundle branch block; dose not given, Grade 4, all drug arms — “patients with treatment-emergent adverse events”: 0%.
For measured: left ventricular dysfunction; dose not given, Grade 3, all drug arms: “patients with treatment-emergent adverse events” read 0%.
The “patients with treatment-emergent adverse events” was 0% (measured: electrocardiogram T wave abnormal; 30 mg once daily, Grade 3).
measured: interstitial lung disease; 60 mg once daily, Grade 5 — “patients with treatment-emergent adverse events”: 0%.
For measured: left ventricular dysfunction; 30 mg once daily, Grade 2: “patients with treatment-emergent adverse events” read 0%.
For measured: interstitial lung disease; 30 mg once daily, Grade 2: “patients with treatment-emergent adverse events” read 0%.
The “patients with treatment-emergent adverse events” was 0% (measured: benign prostatic hyperplasia; 30 mg once daily, Grade 3, maximum intensity).

Block 4
Structure (SMILES): O=C1Nc2ccc(Br)cc2/C1=C/c1cc2c([nH]1)CCCC2
Effect on: enzyme activity
Action: inhibitor
Tested at: 0.5 µM
Reference: control
For Cyclin-dependent kinase 9, with cyclin K (CDK9, Homo sapiens, UniProt P50750): remaining activity read 96.7%.
GRK4 (Homo sapiens, UniProt P32298) — remaining activity: 101%.
MAPK1 (Homo sapiens, UniProt P28482) — remaining activity: 103%.
The remaining activity was 97.5% (CAMK4 (Homo sapiens, UniProt Q16566)).
For MAP2K1 (Homo sapiens, UniProt Q02750): remaining activity read 84.8%.
AKT2 (Homo sapiens, UniProt P31751) — remaining activity: 90.3%.
It gave 96.4% for remaining activity (PAK3 (Homo sapiens, UniProt O75914)).
For CLK4 (Homo sapiens, UniProt Q9HAZ1): remaining activity read 84.5%.
For ROCK1 (Homo sapiens, UniProt Q13464): remaining activity read 98.8%.
TXK (Homo sapiens, UniProt P42681) — remaining activity: 97.3%.
DDR2 (Homo sapiens, UniProt Q16832) — remaining activity: 101%.
MARK2 (Homo sapiens, UniProt Q7KZI7) — remaining activity: 77%.
It gave 96.3% for remaining activity (Cyclin-dependent kinase 1, with cyclin A (CDK1, Homo sapiens, UniProt P06493)).
MAPK11 (Homo sapiens, UniProt Q15759) — remaining activity: 96.8%.
